Experimental data gathered from unrelated publications.
Protocols differ between the studies behind these lines. ± gives the spread as reported.

`CC(C)(C)ONc1nc(Nc2ccnc(C(F)(F)F)c2)nc(-c2cccc(C(F)(F)F)n2)n1` has a half-life of 1160 min (female Balb/cA nude mice xenograft, tumour; oral, 54.14 mg/kg).
With `CCNCC#CCNc1ccnc2cc(Cl)ccc12` the half-life was 282 min (male CD1 mice, plasma; oral, 20 mg/kg of DAQ, compound as metabolite).
`CC=C1C(OC2OC(CO)C(O)C(O)C2O)OC=C(C(=O)OC)C1CC(=O)OCC1OC(OCCc2ccc(O)cc2)C(O)C(O)C1O` (stereo not drawn) has a half-life of 110 min (Balb/c mice, plasma; oral, 109.2 mg/kg).
For `CC(=O)N1CCC(NC(=O)Nc2ccc(OC(F)(F)F)cc2)CC1`, the half-life was 501 min (C57BL/6J mice, male, sEH knockout, whole blood; subcutaneous, 1 mg/kg, added: TPPU 0.3 mg/kg).
`CCN(CC)CC#CCNc1ccnc2cc(Cl)ccc12` has a half-life of 174 min (male CD1 mice, plasma; intravenous, 10 mg/kg).
With `COc1cccc(OCCN2CCC[C@H](CN3CCc4cc(OC)c(OC)cc4CC3=O)C2)c1` the half-life was 49.2 min (male C57BL/6 mice; intraperitoneal, 20 mg/kg).
For `Cc1cccc(O[C@H]2CCC[C@@H](C(C)CNCc3ccncc3)C2)c1` (relative stereo), the half-life was 253 min (female C57BL/6J mice, plasma; intravenous, 3 mg/kg).
The half-life of `O=C(NCCN1C(=O)CCC1=O)[O][Pt]12([O]C(=O)NCCN3C(=O)CCC3=O)([NH][C@@H]3CCCC[C@H]3[NH]1)[O]C(=O)C(=O)[O]2` is reported as 1540 min (BALB/c mice, serum; intravenous, equimolar to 9 mg/kg oxaliplatin).
`CN1/C(=C/C=C/c2cc(-c3ccccc3)cc(-c3ccccc3)[o+]2)C(C)(C)c2ccccc21` gave a half-life of 22.7 min (male CD1 mice, plasma; intravenous, 1 mg/kg).
For `Oc1cc(F)ccc1Oc1ccccc1`, the half-life was 78 ± 42 min (CD-1 mice, plasma; subcutaneous, 100 mg/kg).
`O=C(Cc1ccc(OCc2ccccc2)cc1)NC1(C(=O)O)CCN(C(=O)c2ccc(-c3cccc(Cl)c3)cc2)CC1` has a half-life of 78.9 min (BALB/c mice female; intraperitoneal, 20 mg/kg).
For `COc1cc2c(cc1OC)CC(=O)N(C[C@H]1CCCN(CCOc3ccc(F)cc3)C1)CC2`, the half-life was 43.8 min (female C57BL/6 mice; intraperitoneal, 20 mg/kg).

Repeated from above:
`CC(C)(C)ONc1nc(Nc2ccnc(C(F)(F)F)c2)nc(-c2cccc(C(F)(F)F)n2)n1` has a half-life of 1160 min (female Balb/cA nude mice xenograft, tumour; oral, 54.14 mg/kg).
